Results collected from several papers.
Compare with care: the assays were run in different laboratories. “And” joins repeats or separate records; there may be more than shown. Numbers after ± are the reported error.

Compound	cell line	assay	setting	how to read	quantity	result
O=C(C=Cc1cc(C(=O)c2ccc(OC3CCCC3)cc2O)ccc1OCc1ccc2c(O)noc2c1)NCCOCCOCCOCCOCCOCCOCCOCCNc1cccc2c1C(=O)N(C1CCC(=O)NC1=O)C2=O (stereo not shown)	FaDu cancer stem cells	tumorsphere formation	–	–	ED50	2.22 µM
NC(=O)c1ccc(-c2nc(-c3ccc4c(c3)OCCO4)c(-c3ccccn3)[nH]2)cc1	HeLa expressing Ub(G76V)-GFP	Ub(G76V)-GFP degradation, cycloheximide chase	12 µM	–	inhibition	6%
c1ccc2[nH]ccc2c1	HCT-8	RNA-seq, item: BHLHE40	concentration not given	–	mRNA level, LS mean	6.99 counts per million
Nc1ccc(-c2ccc3ncc4ccc(=O)n(-c5cccc(C(F)(F)F)c5)c4c3c2)cn1	BT-12	cell viability, MTT	10 µM, 72 h	–	inhibition	93.3%
COc1cc(/C=C/C(=O)N2CCC=CC2=O)cc(OC)c1OC	MDA-MB-468	qRT-PCR, item: GGT5	30 µM, 6 h	baseline: time zero	mRNA level	106 ± 2.6%
Cc1ccccc1Cn1cc(-c2cccc(NC(=O)Nc3ccc(F)cc3)c2)nn1	Huh-7	RT-PCR, item: Bcl2 and Bax	10 µM, 72 h	–	mRNA level	decreased
Cc1cccc(-c2[nH]c(CNc3ccccc3F)nc2-c2ccc3ncnn3c2)n1	bone marrow CD138+ myeloma cells	XTT	0.2 µM, mean of three patients	–	viability	98%
CC[S+]([O-])c1nc(-c2ccccc2)cc(C(F)(F)F)n1 (stereo not shown)	HeLa Kyoto	RelA nuclear import, high content imaging	0.05 µM, 3 h, with: 1 µM PMA, 60 min	–	cells with nuclear RelA	78.1% and 65.1%
CCCOc1nc(-c2cccc(O)c2)cc(-c2cc3cc(OC)ccc3nc2N2CCOCC2)c1C#N	WI-38	cell viability, MTT	72 h	–	EC50	0.107 ± 0.002 µM
Cc1cc(C)n(-c2nc(-c3ccc(Cl)cc3)c3c(NC(=O)c4ccccc4)nnc-3[nH]2)n1	Hs-578T	SRB	10 µM, NCI60 single-dose screen	baseline: untreated	cell growth	80%
O=C(Nc1cccc(Nc2cc(Nc3cccc(C(F)(F)F)c3)ncn2)c1)C1CC1	HeLa expressing Ub(G76V)-GFP	Ub(G76V)-GFP degradation, inhibitor, cycloheximide chase	12 µM	–	inhibition	39%
O=C(/C=C/C=C/C=C/C1CCCCC1)NC1=C[C@@](O)(/C=C/C=C/C=C/C(=O)NC2=C(O)CCC2=O)[C@@H]2O[C@@H]2C1=O	G-402	cell growth, CellTiter-Glo	78 h	–	GI50	8.28 µM
CCCCCCCCCCCCCCCc1cccc(O)c1C(=O)O	HBL-1	–	1 µM, 120 h	–	viability	106%
CC(=O)Nc1cccc(-n2c(=O)n(C3CC3)c(=O)c3c(Nc4ccc(I)cc4F)n(C)c(=O)c(C)c32)c1	LoVo (KRAS G13D)	cell viability, resazurin	1.56 nM, 72 h	baseline: DMSO	average fractional effect	18%
COc1cnc2cccc(N3CCc4c(cc(Cn5ccnc5C)cc4-c4cn(C)nc4C(F)(F)F)C3=O)c2c1	ML1	cell growth, inhibitor	120 h	–	EC50	> 30 µM
NC(=O)[C@H](CCCN=C(N)CCl)NC(=O)c1ccccc1	HBL-1	–	0.5 µM, 120 h	–	viability	124%
C#Cc1cccc(Nc2ncnc3cc(OC)c(OCCCCCCC(=O)NO)cc23)c1	BT-12	cell viability, MTT	10 µM, 72 h	–	inhibition	94.5%
CCc1cnc(N2CCC(c3nc(COc4ccc(-n5cnnn5)cc4)cs3)CC2)nc1	HEK-293T	RNA-seq GSEA, item: HALLMARK_FATTY_ACID_METABOLISM	concentration not given	direction not given	normalized enrichment score	1.29
Cn1cc(-c2ccc(-c3cncc(Cl)c3N3CCC4(CCNC4=O)CC3)cc2)cn1	COLO 205	gene expression, microarray, item: SERPINH1 mRNA	concentration not given, 6 h	baseline: untreated cells	log2 fold change	2.05
Cc1cc(NS(=O)(=O)c2ccc(NC(=O)/C(C#N)=C/c3ccc(N4CCCCC4)cc3)cc2)no1	HCT-116	qRT-PCR, item: CDH1	concentration not given	baseline: untreated	mRNA level decrease	4.32 times
C=CC(=O)N1CCCN(C(=O)c2cc(Sc3cnc(NC(=O)C4CC4)s3)c(C)cc2OC)C[C@H]1C	human primary T cells	–	10 µM, six days, with: TCR stimulation	–	total cell number	decreased
CC1(C)CN(CCCCC(=O)N[C@@H](CCCCNC(=O)CCCCCCC(=O)NCCCC[C@H](NC(=O)N[C@@H](CCC(=O)O)C(=O)O)C(=O)O)C(=O)O)CC[N]2CC(C)(C)[S][Tc]2(=[O])[S]1 (stereo partly shown) [technetium-99m labelled]	LNCaP	–	25 nM, 1 h, 37 °C	–	surface-bound activity	3 ± 1.38 %AD/mg protein
COC(=O)/C=C/C(=O)N(O)CCCCNCc1ccc(COC(=O)Nc2cccc3ccccc23)cc1	HBL-1	–	0.1 µM, 120 h	–	viability	119%
Cc1cc(Nc2ncc(Cl)c(Nc3ccccc3S(=O)(=O)C(C)C)n2)c(OC(C)C)cc1C1CCNCC1	BT-12	cell viability, MTT	10 µM, 72 h	–	inhibition	93.9%
CC(Nc1nc(N2CCCC2)nc2ccccc12)c1ccccc1 (stereo not shown)	HeLa Kyoto	RelA nuclear import, high content imaging	1.58 µM, 3 h, with: 1 µM PMA, 60 min	–	cells with nuclear RelA	93.7% and 77.2%
COC[C@H](NC(=O)[C@H](CCC(=O)NC(C)(C)C)NS(=O)(=O)c1ccc(C)cc1)C(=O)NCc1ccc(F)c2ccccc12	MM1.S	cell viability, CellTiter-Glo	72 h	–	EC10	0.02 µM
C=Cc1c2[n-]c(c1C)/C=c1\[n-]/c(c(C)c1C=C)=C\c1[n-]c(c(CCC(=O)O)c1C)/C=c1\[n-]c(c(C)c1CCC(=O)O)=C2.[Sn+4]	SH-SY5Y	RNA-seq, item: FGF5 mRNA	5 µM, 5 h	baseline: untreated cells	fold change	2.72
CCCCc1nc2cc(/C=C/C(=O)NO)ccc2n1CCN(CC)CC	HBL-1	–	1 µM, 120 h	–	viability	0.465%

Compound	cell line	assay	setting	how to read	quantity	result
CCC/N=C1\S/C(=C\c2ccc(OC[C@H](O)CO)c(Cl)c2)C(=O)N1c1ccccc1C	human primary astrocytes	single-cell RNA-seq	concentration not given, 48 h, with: cytokines	baseline: cytokines alone	downregulated genes	4070 genes
Cc1cnc(Nc2ccc(OCCN3CCCC3)cc2)nc1Nc1cccc(S(=O)(=O)NC(C)(C)C)c1	iCell cardiomyocytes hiPSC-derived	impedance	concentration not given, 2 h	baseline: vehicle	beat amplitude	107%
Cn1cc(Nc2nccc(-c3ccc4c(c3)CN(C3COC3)CC[C@H]4NC(=O)c3cn(C(C)(C)C)nn3)n2)cn1	mouse splenic B cells	item: TNFR2 signalling	30 mg/kg, IgD-activated in vivo	baseline: vehicle, direction not given	pathway activation z-score	0
CCn1cc(-c2cc(Cn3ccoc3=N)cc3c2CCN([C@@H](C)c2cc(OC)ccn2)C3=O)c(C(F)(F)F)n1	HSC-3	cell growth, inhibitor	120 h	–	EC50	> 30 µM
CCc1cnn2c(NCc3ccc[n+]([O-])c3)cc(N3CCCC[C@H]3CCO)nc12	BT-12	cell viability, MTT	10 µM, 72 h	–	inhibition	94.8%
CNc1ncnc2c1c(-c1ccc3cc(OC4CC4)ccc3c1)nn2CC(C)(C)O	LNCaP	radiometric	20 µM, 3 h, with: [3H]3-O-methylglucose	–	3-O-methylglucose uptake	no inhibition
N#Cc1cnc2cnc(NCc3cccnc3)cc2c1Nc1ccc(F)c(Cl)c1	HeLa expressing Ub(G76V)-GFP	Ub(G76V)-GFP degradation, cycloheximide chase	12 µM	–	inhibition	100%
NC(=O)c1cccnc1	HBL-1	–	0.5 µM, 120 h	–	viability	111%
COc1cc([C@@H]2c3cc4c(cc3[C@@H](O[C@@H]3O[C@@H]5CO[C@@H](c6cccs6)O[C@H]5[C@H](O)[C@H]3O)[C@H]3COC(=O)[C@H]23)OCO4)cc(OC)c1O	BT-12	cell viability, MTT	10 µM, 72 h	–	inhibition	89.3%
Nc1cccc(-c2cc3c(Oc4cccc(O)c4)ncnc3[nH]2)c1	HeLa expressing Ub(G76V)-GFP	Ub(G76V)-GFP degradation, cycloheximide chase	12 µM	–	inhibition	11%
O=C(C[C@@H](C(F)F)n1ccc(F)n1)N1CCC(O)(Cn2cnc3c(cnn3-c3ccc(F)cc3)c2=O)CC1	CHP-212 resistant cells (pooled)	annexin V-PI flow cytometry	0.1 µM, 48 h	–	viable cells (annexin V-/PI-)	85.2% and 83.7% and 86.2%
Cc1[nH]c2ccccc2c1CCNCc1ccc(/C=C/C(=O)NO)cc1	HBL-1	–	0.1 µM, 120 h	–	viability	0.432%
CCCCc1c(-c2ccc(O)cc2)[nH]c2nccnc12	HeLa expressing Ub(G76V)-GFP	Ub(G76V)-GFP degradation, cycloheximide chase	12 µM	–	inhibition	3%
Cn1cc(/C=C/C(=O)c2cccc(F)c2)cc1/C=C/C(=O)NO	HBL-1	–	0.1 µM, 120 h	–	viability	123%
CCCCc1oc2ccc(NS(C)(=O)=O)cc2c1C(=O)c1ccc(OCCCN(CCCC)CCCC)cc1	human embryonic stem cell aggregates	mRNA level, microarray, item: SLC22A23	0.5 µM, 120 h	baseline: untreated, up-regulated	fold change	1.9 fold
C=CC1=C(C)c2cc3[n-]c(cc4nc(cc5[n-]c(cc1n2)c(C)c5C=C)C(C)=C4CCC(=O)O)c(CCC(=O)O)c3C.[Zn+2]	SH-SY5Y	RNA-seq, item: PTGS1 mRNA	5 µM, 5 h	baseline: untreated cells	fold change	2.48
COc1ccc(CNC(=O)Nc2ncc([N+](=O)[O-])s2)cc1	HeLa expressing Ub(G76V)-GFP	Ub(G76V)-GFP degradation, cycloheximide chase	12 µM	–	inhibition	87%
COC[C@H](NC(=O)c1cnc(C)s1)C(=O)N[C@@H](COC)C(=O)N[C@@H](Cc1ccccc1)C(=O)[C@@]1(C)CO1	BT-12	cell viability, MTT	10 µM, 72 h	–	inhibition	95%
O=C(O)C=Cc1cc(Br)c(Br)c(Br)c1Br	HeLa expressing Ub(G76V)-GFP	Ub(G76V)-GFP degradation, cycloheximide chase	12 µM	–	inhibition	14%
C=CC(=O)Nc1cc(Nc2nccc(-c3cn(C)c4ccccc34)n2)c(OC)cc1N(C)CCN(C)C	BT-12	cell viability, MTT	10 µM, 72 h	–	inhibition	93.4%
Nc1ccccc1NC(=O)c1ccc(CNc2ccc(NC3=C(Cl)C(=O)c4cccnc4C3=O)cc2)cc1	MDA-MB-231	DNA replication	5 µM, 6 h	–	EdU incorporation	decreased
Cc1nc(NC(=O)N2CCC[C@H]2C(N)=O)sc1-c1ccnc(C(C)(C)C(F)(F)F)c1	A2058	resazurin growth rate inhibition	72 h	–	GR50	> 5 µM
CC/C(=N\NC(=O)C(C)Nc1ccccc1)c1ccc(O)c(C)c1O (stereo not shown)	SK-OV-3	Western blot, item: phospho-YAP	10 µM, 3 h, 3D gellan gum culture, unit not given	baseline: total YAP	protein level	0.29 ± 0.12
COc1cc2c(NC3CCN(C)CC3)nc(N3CCCN(C)CC3)nc2cc1OCCCN(C)C	HBL-1	–	0.1 µM, 120 h	–	viability	111%
CCn1cc(-c2cc(Cn3ccnc3)cc3c2CCN([C@H](c2cc(OC)ccn2)C2CC2)C3=O)c(C(F)(F)F)n1	RPMI-7951	cell growth, inhibitor	120 h	–	EC50	16 µM
NCCNc1ncc(C(N)=O)c(Nc2cccc(C(F)(F)F)c2)n1	HeLa expressing Ub(G76V)-GFP	Ub(G76V)-GFP degradation, cycloheximide chase	12 µM	–	inhibition	26%
CC/C(=N\NC(=O)NCc1cccc(O)c1)c1ccc(O)c(C)c1O	SK-OV-3	Western blot, item: phospho-YAP	10 µM, 1 h, 3D gellan gum culture, unit not given	baseline: total YAP	protein level	0.21 ± 0.1

Repeated from above:
Compound	cell line	assay	setting	how to read	quantity	result
CC1(C)CN(CCCCC(=O)N[C@@H](CCCCNC(=O)CCCCCCC(=O)NCCCC[C@H](NC(=O)N[C@@H](CCC(=O)O)C(=O)O)C(=O)O)C(=O)O)CC[N]2CC(C)(C)[S][Tc]2(=[O])[S]1 (stereo partly shown) [technetium-99m labelled]	LNCaP	–	25 nM, 1 h, 37 °C	–	surface-bound activity	3 ± 1.38 %AD/mg protein
Cc1cc(C)n(-c2nc(-c3ccc(Cl)cc3)c3c(NC(=O)c4ccccc4)nnc-3[nH]2)n1	Hs-578T	SRB	10 µM, NCI60 single-dose screen	baseline: untreated	cell growth	80%
CNc1ncnc2c1c(-c1ccc3cc(OC4CC4)ccc3c1)nn2CC(C)(C)O	LNCaP	radiometric	20 µM, 3 h, with: [3H]3-O-methylglucose	–	3-O-methylglucose uptake	no inhibition
NC(=O)[C@H](CCCN=C(N)CCl)NC(=O)c1ccccc1	HBL-1	–	0.5 µM, 120 h	–	viability	124%
O=C(O)C=Cc1cc(Br)c(Br)c(Br)c1Br	HeLa expressing Ub(G76V)-GFP	Ub(G76V)-GFP degradation, cycloheximide chase	12 µM	–	inhibition	14%
CCn1cc(-c2cc(Cn3ccnc3)cc3c2CCN([C@H](c2cc(OC)ccn2)C2CC2)C3=O)c(C(F)(F)F)n1	RPMI-7951	cell growth, inhibitor	120 h	–	EC50	16 µM
Cc1nc(NC(=O)N2CCC[C@H]2C(N)=O)sc1-c1ccnc(C(C)(C)C(F)(F)F)c1	A2058	resazurin growth rate inhibition	72 h	–	GR50	> 5 µM
COC[C@H](NC(=O)[C@H](CCC(=O)NC(C)(C)C)NS(=O)(=O)c1ccc(C)cc1)C(=O)NCc1ccc(F)c2ccccc12	MM1.S	cell viability, CellTiter-Glo	72 h	–	EC10	0.02 µM
